Experimental data collected from several papers.
A part holds a random share of what one study measured. “And” joins repeats or separate records; there may be more than shown.
UniProt O96017, sequence (whole entry, looked up): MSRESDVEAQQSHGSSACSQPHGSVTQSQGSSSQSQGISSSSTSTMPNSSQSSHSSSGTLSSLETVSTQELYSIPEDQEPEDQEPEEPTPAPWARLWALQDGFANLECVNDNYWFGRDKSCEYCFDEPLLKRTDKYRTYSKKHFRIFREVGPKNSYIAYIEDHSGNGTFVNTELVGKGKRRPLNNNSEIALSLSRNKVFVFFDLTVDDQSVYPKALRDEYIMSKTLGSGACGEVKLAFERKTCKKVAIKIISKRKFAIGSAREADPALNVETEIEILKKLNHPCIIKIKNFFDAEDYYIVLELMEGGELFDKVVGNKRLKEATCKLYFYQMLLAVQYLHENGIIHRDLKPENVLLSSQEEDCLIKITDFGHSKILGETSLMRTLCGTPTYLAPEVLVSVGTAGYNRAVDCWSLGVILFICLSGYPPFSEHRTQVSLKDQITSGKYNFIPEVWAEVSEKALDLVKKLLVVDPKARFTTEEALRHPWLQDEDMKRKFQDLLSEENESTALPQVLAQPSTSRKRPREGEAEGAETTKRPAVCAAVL
UniProt P37173, sequence (whole entry, looked up): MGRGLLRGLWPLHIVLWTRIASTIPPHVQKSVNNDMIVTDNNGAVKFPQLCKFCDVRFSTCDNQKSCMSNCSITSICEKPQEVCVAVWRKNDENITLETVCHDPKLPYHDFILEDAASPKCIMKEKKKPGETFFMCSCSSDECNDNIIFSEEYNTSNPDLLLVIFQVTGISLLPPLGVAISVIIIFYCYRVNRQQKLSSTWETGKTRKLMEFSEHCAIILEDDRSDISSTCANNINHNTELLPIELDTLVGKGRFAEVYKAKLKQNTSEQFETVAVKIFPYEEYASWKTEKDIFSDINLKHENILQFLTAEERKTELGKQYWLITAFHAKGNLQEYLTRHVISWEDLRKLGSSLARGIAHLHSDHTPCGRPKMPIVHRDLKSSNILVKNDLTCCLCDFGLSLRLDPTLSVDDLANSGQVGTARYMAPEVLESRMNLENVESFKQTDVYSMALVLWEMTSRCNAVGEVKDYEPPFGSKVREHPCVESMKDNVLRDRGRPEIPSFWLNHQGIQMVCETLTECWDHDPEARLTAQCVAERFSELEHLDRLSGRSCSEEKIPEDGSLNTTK
UniProt Q00535, sequence (whole entry, looked up): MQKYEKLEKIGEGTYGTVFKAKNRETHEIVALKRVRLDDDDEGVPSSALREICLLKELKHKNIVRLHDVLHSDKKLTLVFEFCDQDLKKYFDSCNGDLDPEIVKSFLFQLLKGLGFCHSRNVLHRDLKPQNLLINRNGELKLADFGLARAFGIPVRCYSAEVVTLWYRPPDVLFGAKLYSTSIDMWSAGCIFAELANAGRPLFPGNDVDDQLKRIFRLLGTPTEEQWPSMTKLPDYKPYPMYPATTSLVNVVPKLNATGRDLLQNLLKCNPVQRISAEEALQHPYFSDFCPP
UniProt Q96RR4, sequence (whole entry, looked up): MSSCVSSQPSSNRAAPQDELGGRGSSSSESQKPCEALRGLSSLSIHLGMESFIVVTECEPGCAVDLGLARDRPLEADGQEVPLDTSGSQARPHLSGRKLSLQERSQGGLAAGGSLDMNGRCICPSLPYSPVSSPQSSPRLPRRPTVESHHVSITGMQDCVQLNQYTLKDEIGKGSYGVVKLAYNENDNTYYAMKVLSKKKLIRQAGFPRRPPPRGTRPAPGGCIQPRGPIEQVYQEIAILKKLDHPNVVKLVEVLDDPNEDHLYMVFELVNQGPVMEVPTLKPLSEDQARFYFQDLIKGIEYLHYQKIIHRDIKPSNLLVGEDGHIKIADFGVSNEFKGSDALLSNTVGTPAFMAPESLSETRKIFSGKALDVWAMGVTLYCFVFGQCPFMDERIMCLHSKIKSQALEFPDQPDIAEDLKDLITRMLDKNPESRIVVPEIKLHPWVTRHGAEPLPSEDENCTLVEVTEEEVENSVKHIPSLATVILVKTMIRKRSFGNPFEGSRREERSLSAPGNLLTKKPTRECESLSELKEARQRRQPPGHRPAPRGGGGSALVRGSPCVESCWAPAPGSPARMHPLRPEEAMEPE
UniProt Q14164, sequence (whole entry, looked up): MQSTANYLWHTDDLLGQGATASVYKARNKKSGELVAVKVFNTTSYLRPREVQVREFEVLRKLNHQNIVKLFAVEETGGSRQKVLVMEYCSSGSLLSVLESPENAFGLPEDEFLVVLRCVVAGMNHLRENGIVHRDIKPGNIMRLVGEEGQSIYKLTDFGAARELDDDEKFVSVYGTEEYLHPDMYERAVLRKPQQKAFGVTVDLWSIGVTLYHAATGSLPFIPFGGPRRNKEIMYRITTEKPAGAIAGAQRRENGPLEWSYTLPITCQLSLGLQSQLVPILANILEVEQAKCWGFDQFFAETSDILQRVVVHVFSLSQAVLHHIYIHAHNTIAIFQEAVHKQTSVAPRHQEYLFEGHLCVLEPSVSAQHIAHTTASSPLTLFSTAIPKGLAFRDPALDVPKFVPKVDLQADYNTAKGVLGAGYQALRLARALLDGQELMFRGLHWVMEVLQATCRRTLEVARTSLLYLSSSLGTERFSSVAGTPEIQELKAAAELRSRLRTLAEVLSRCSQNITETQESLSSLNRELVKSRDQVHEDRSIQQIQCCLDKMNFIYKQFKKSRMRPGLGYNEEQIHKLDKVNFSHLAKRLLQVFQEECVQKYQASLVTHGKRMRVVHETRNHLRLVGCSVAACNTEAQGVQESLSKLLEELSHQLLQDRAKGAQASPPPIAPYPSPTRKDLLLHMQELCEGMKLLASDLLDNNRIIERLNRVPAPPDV
UniProt P53355, sequence (whole entry, looked up): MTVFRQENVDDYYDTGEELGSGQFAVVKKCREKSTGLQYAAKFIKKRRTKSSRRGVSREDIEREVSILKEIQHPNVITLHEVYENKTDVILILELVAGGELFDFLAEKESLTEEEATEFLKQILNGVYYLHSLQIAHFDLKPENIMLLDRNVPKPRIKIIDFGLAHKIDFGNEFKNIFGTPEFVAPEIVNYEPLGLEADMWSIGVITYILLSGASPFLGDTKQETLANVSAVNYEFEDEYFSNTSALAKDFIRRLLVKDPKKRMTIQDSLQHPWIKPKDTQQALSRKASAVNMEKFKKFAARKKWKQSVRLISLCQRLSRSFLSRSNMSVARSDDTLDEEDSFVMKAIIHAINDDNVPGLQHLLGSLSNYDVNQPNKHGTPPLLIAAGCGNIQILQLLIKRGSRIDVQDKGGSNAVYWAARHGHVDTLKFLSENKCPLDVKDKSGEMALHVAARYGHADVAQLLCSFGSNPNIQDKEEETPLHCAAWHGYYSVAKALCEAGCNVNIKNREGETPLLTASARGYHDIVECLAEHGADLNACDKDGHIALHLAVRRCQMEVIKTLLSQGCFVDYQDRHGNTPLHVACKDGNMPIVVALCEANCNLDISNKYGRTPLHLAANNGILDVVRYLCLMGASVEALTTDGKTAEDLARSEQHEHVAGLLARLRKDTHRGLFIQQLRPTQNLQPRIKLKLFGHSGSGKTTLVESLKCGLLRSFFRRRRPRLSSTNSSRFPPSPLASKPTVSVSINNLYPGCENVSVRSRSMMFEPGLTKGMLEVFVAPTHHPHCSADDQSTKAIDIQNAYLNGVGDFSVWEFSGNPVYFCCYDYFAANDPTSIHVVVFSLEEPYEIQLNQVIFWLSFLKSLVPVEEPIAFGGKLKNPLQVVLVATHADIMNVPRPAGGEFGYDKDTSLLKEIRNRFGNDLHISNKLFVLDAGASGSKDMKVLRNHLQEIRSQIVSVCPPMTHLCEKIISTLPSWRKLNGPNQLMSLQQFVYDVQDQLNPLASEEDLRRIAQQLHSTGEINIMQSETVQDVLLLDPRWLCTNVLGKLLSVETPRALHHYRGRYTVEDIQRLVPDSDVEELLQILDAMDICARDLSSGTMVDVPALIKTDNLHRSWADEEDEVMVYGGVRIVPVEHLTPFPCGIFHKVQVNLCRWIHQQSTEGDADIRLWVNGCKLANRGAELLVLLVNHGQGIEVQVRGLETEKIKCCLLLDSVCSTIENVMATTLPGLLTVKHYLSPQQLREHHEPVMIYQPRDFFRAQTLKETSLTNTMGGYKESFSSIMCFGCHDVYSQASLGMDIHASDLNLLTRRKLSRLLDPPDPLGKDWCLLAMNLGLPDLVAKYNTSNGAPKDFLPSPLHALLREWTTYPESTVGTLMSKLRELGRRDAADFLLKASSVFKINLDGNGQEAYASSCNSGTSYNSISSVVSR
UniProt P11802, sequence (whole entry, looked up): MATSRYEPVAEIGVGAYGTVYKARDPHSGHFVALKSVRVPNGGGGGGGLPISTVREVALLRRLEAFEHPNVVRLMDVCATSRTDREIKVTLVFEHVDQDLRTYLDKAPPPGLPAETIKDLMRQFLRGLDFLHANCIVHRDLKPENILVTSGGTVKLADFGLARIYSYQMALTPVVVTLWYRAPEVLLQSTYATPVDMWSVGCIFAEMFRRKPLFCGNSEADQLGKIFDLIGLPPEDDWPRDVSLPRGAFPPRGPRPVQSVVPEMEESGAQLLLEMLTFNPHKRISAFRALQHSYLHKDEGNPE

Study 1 — species: human; sample: microsomes or S9; concentration: 2 µM; time: 0.5 h
| Structure (SMILES) | remaining compound [%] |
| --- | --- |
| Cc1ncn(CCS(=O)(=O)c2ccc(C(C)(C)C)cc2)c(=O)c1C | 81.2 |
| O=C(Nc1ccc(N2CCCS2(=O)=O)cc1)c1cc(C2CC2)nc2ccccc12 | 77.9 |
| C[C@H]1CCCC(=O)CCC/C=C/c2cc(OCc3ccc(Cl)c(Cl)c3)cc(OCc3ccc(Cl)c(Cl)c3)c2C(=O)O1 | 47.5 |
| CC1(COc2ccc(Br)cc2)CCC(C(C)(C)C)=NO1 (stereo not shown) | 87.6 |
| Cc1c(C(=O)OC(C)C)sc2ncn(CC(=O)O)c(=O)c12 | 86.2 |
| Cc1ncn(-c2cc(NCCNC(=O)C(C)(C)C)ncn2)c1C | 39.3 |
| CCC(C)C1Nc2ccc(C(=O)NCC(C)CN(CC)CC)cc2NC1=O (stereo not shown) | 90 |

Study 2 — observed: enzyme activity; mode: inhibitor; concentration: 0.5 µM; relative to: control
SMILES: C[C@@H](N)[C@H]1CC[C@H](C(=O)Nc2ccncc2)CC1
| target | remaining activity |
| --- | --- |
| STE20/SPS1-related proline-alanine-rich protein kinase (STK39, Homo sapiens, UniProt Q9UEW8) | 95.8% |
| Death-associated protein kinase 2 (DAPK2, Homo sapiens, UniProt Q9UIK4) | 94.8% |
| Serine/threonine-protein kinase STK11 (STK11, Homo sapiens, UniProt Q15831) | 91.2% |
| Tyrosine-protein kinase Lyn, isoform B (LYN, Homo sapiens, UniProt P07948) | 97.3% |
| Inhibitor of nuclear factor kappa-B kinase subunit epsilon (IKBKE, Homo sapiens, UniProt Q14164) | 97.6% |
| G protein-coupled receptor kinase 3 (GRK3, Homo sapiens, UniProt P35626) | 93.8% |
| cGMP-dependent protein kinase 1, isoform beta (PRKG1, Homo sapiens, UniProt Q13976) | 83.5% |
| Calcium/calmodulin-dependent protein kinase kinase 2 (CAMKK2, Homo sapiens, UniProt Q96RR4) | 101% |
| Serine/threonine-protein kinase Nek2 (NEK2, Homo sapiens, UniProt P51955) | 88.7% |
| Serine/threonine-protein kinase 10 (STK10, Homo sapiens, UniProt O94804) | 88.9% |
| Serine/threonine-protein kinase Chk2 (CHEK2, Homo sapiens, UniProt O96017) | 95.6% |
| Protein kinase C alpha type (PRKCA, Homo sapiens, UniProt P17252) | 97.8% |
| Serine/threonine-protein kinase OSR1 (OXSR1, Homo sapiens, UniProt O95747) | 90.1% |
| Cyclin-dependent kinase 4, with cyclin D1 (CDK4, Homo sapiens, UniProt P11802) | 96.8% |
| TGF-beta receptor type-2 (TGFBR2, Homo sapiens, UniProt P37173) | 110% |
| Cyclin-dependent kinase 5, with p25 (CDK5, Homo sapiens, UniProt Q00535) | 89.6% |
| Protein kinase C beta type, isoform beta-I (PRKCB, Homo sapiens, UniProt P05771) | 101% |
| Calcium/calmodulin-dependent protein kinase type II subunit delta (CAMK2D, Homo sapiens, UniProt Q13557) | 90.1% |
| Mitogen-activated protein kinase kinase kinase 3 (MAP3K3, Homo sapiens, UniProt Q99759) | 103% |
| Mitogen-activated protein kinase 9 (MAPK9, Homo sapiens, UniProt P45984) | 103% |
| Death-associated protein kinase 1 (DAPK1, Homo sapiens, UniProt P53355) | 103% |

Study 3 — observed: binding; method: radioligand binding; concentration: 10 µM
Target: Muscarinic acetylcholine receptor M2 (CHRM2, Homo sapiens, UniProt P08172)
UniProt P08172, sequence (whole entry, looked up): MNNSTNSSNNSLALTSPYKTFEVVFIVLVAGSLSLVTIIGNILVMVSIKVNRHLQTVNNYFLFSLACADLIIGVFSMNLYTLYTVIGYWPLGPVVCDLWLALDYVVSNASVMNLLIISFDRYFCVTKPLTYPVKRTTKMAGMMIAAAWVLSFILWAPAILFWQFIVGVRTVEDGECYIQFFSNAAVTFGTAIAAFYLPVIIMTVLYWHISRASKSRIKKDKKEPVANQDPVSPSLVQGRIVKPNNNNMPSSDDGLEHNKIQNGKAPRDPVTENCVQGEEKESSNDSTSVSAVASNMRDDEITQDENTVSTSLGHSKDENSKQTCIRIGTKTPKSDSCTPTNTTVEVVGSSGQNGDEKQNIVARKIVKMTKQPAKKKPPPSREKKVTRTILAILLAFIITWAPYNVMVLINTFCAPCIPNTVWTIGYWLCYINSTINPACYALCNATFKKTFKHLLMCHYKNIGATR
| Compound | inhibition |
| --- | --- |
| Cc1nc(N2CC[C@@H](O)C2)ncc1-c1cc(C(F)(F)F)cc2[nH]ncc12 | -8.94% |
| Cc1nc(Cc2cccc(C(F)(F)F)c2)sc1-c1ccc(C(N)=O)nc1 | 12.8% |
| COc1cccc(CNC(=O)c2nc3scc(COCc4ccc(C(=O)O)cc4)c3c(=O)[nH]2)c1 | -2.95% |
| Cc1c(N2CCCC2)nc2ccc(Br)cc2c1C(=O)NC[C@H](CCC(=O)O)c1ccccc1Cl | 14.6% |
| CC(=O)Nc1nc(CN2CCC[C@H](Cc3cc(C)nc(C)c3)C2)cs1 | 8.65% |
| CCOC(=O)c1cc2cc(-c3cc(C(=O)NCc4ccc(C(=O)O)cc4)nn3C)ccc2[nH]1 | -17.2% |
| COc1nc2ccc([C@@](O)(c3ccccc3)C3CCN(C(C)=O)CC3)cc2c(Cl)c1Cc1ccc(-n2cccn2)cc1 | 1.16% |
| O=C(Nc1cccnn1)N1CCC(=Cc2cccc(Oc3ccc(C(F)(F)F)cn3)c2)CC1 | 20.8% |
| O=C1CCc2cc(Nc3cc(OC4CCOCC4)c([N+](=O)[O-])cc3Cl)ccc2N1 | 5.41% |
| O=C(Nc1cccnn1)N1CC(CC=Cc2cncc(Oc3ccc(C(F)(F)F)cn3)n2)C1 | 20.7% |
| CNC(=O)c1ccc(Nc2ncc(C(F)(F)F)c(NCc3nccnc3N(C)S(C)(=O)=O)n2)cc1 | 19.5% |
| O=C([C@H]1C[C@H](O)CN1c1ccc(Cl)cc1)N1CC2COCC(C1)N2Cc1ccc(Cl)cc1 | 1.89% |
| C[C@H](NC(=O)c1cnc2n1[C@](C)(Cc1ccc(C#N)cc1)C(=O)N2c1cc(Cl)c(F)c(Cl)c1)C(=O)NC1(c2ccccn2)CC1 | -13.4% |
| Cc1nccc(COC(=O)N2C[C@@H]3[C@@H](CNC(=O)c4ccc5[nH]nnc5c4)[C@@H]3C2)n1 | -5.6% |
| CN1CCN(C(=O)C(C)(C)c2ccc(C(=O)Nc3cn4cc(-c5ccncc5)ccc4n3)cc2)CC1 | 3.82% |
| CC(=O)c1c(NS(C)(=O)=O)c2cc(-c3ccc(Cl)cc3)c(-c3ccc(Cl)cc3Cl)nc2n(C)c1=O | -4.45% |
| C[C@@]1(Cc2ccc(C#N)cc2)C(=O)N(c2cc(Cl)cc(Cl)c2)c2ncc(C(=O)NC3(c4nc(C5CCC5)no4)CC3)n21 | -8.35% |
| CN([C@@H]1CCc2c(CC(=O)O)c3cc(S(C)(=O)=O)ccc3n2C1)S(=O)(=O)c1ccc(F)cc1 | -9.24% |
| O=C(O)c1cc(-c2ccc(C3CCNCC3)cc2)c2ccc(-c3ccc(C(F)(F)F)cc3)cc2c1 | 10.9% |
| CN(C)C(=O)Cn1cc(-c2nc([C@@](C)(c3ccc(-c4cnc(N)nc4)cc3)C3CC3)no2)cn1 | -7.52% |
| C[C@@H]1CN(c2cc(-c3nn(C)c4ccc(OC5(C)CC5)cc34)ncn2)C[C@H](C)O1 | 21% |
| CC(=O)Nc1c(F)cc(C(=O)N[C@H]2CC[C@H](O)CC2)cc1O[C@@H](C)c1ccccc1 | 18.1% |
| CC(C)CC(=O)N1CCc2nc(-c3ccc(Br)cc3)nc(N(C)Cc3ccccc3)c2C1 | 18.2% |

Other studies, line by line
| SMILES | target | cell line | concentration | notes | relative to | endpoint | result |
| --- | --- | --- | --- | --- | --- | --- | --- |
| Ic1ccc(Nc2nc(NCCN3CCOCC3)nc(N3CCOCC3)n2)cc1 | lysosomal β-galactosidase (human, wild type) | healthy dermal fibroblasts | 1 µM | unit not given | DMSO | remaining activity | 1.12 and 1.11 and 1.22 and 1.19 |

Repeated from above (study 2):
| target | remaining activity |
| --- | --- |
| Cyclin-dependent kinase 5, with p25 (CDK5, Homo sapiens, UniProt Q00535) | 89.6% |
| Tyrosine-protein kinase Lyn, isoform B (LYN, Homo sapiens, UniProt P07948) | 97.3% |
| Death-associated protein kinase 2 (DAPK2, Homo sapiens, UniProt Q9UIK4) | 94.8% |
| Protein kinase C alpha type (PRKCA, Homo sapiens, UniProt P17252) | 97.8% |
| STE20/SPS1-related proline-alanine-rich protein kinase (STK39, Homo sapiens, UniProt Q9UEW8) | 95.8% |
